# Measurements gathered from unrelated publications.
# Parts stem from different laboratories: compare values within a part only. Substitutions count along the parent as printed.

# Set 1 — technique: protein binding microarray; form: double-stranded DNA, one strand shown; matrix: in vitro; concentration: not given; reference: not given; reading: higher = stronger binding
# Target: Histone acetyltransferase KAT6A, both winged helices, GST fusion (KAT6A, Homo sapiens, UniProt Q92794, residues 1-181)
# Setting: 8-mer, flanks averaged, mean of 2 arrays, mostly near background
# Residues (chain): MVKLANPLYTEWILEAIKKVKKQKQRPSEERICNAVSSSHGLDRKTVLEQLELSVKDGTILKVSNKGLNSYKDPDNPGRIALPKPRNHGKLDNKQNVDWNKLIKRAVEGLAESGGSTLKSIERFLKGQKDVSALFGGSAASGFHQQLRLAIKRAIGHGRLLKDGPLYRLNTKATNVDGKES
Sequence,E-score
CCACACGA,-0.114
CATGGCCA,-0.191
CTACTGCA,-0.189
AATTGATG,-0.165
CTTAGAGA,-0.217
CTAACACA,-0.0479
AAGACCCC,-0.0386

# Set 2 — target: CCND2, cyclin fold, Cln2 fusion (human); technique: yeast growth competition, sequencing; matrix: yeast; setting: weak parent motif; reference: not given; reading: higher = stronger binding
# Starting sequence: SAMHD1 docking peptide (human); ASKSRVQLFKDDP; partner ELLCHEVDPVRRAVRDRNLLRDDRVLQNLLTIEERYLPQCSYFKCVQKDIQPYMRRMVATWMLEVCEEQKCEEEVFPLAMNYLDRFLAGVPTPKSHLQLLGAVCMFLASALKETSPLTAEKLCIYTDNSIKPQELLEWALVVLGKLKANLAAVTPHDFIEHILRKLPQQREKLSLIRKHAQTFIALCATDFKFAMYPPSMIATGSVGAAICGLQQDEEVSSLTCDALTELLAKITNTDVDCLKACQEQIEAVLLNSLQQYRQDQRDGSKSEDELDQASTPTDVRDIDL
Change,normalised enrichment score
K10T,0.216
F9M,0.367
D11M,0.0221
F9N,0.327
S2Q,0.211
F9V,0.573
D11E,0.219

# Set 3 — technique: protein-binding microarray; form: double-stranded DNA, one strand shown; matrix: in vitro; concentration: 940 nM top; setting: 60-bp whole probe; added: salmon DNA 0.4 mg/ml; reference: random background probes; reading: higher = stronger binding; constant ends, left off below: GCCTAGCAC … GTCTTGATTCGCTTGACGCTGCTG
# Target: Interferon regulatory factor 5, full length, phosphomimetic (IRF5, Homo sapiens, UniProt Q13568-2, residues 1-514, S451D/S453D/S456D/S462D)
Sequence,fitted relative affinity
GACGGTTTCCTTTTCATGACGTGCTAG,2.19 z-score
TCAAATTTCCCTCTGCTACTGTGCTAG,0.737 z-score
GACTATTTCAGTTTCGAGACGTGCTAG,5.29 z-score
TTAGAGCTGAGTATCGATTAGTGCTAG,4 z-score
TTAGGTTTCTGTATCGGTTAGTGCTAG,7.48 z-score
GTGACTCTGAACCTTCAGCTCGTGCTA,-0.281 z-score
GACGGACCGCTTATCCTGACGTGCTAG,-0.12 z-score
GAGGATATCAGTTTCGAGACGTGCTAG,3.31 z-score
ATGCATTGTTATTTGTCAATGTGCTAG,0.179 z-score
TTAGGTCTCGGGCTCGGTTAGTGCTAG,1.55 z-score

# Further values, each from its own experiment
Molecule,target,test,test system,setting,scale,quantity,value
"PhoQ, residues 284 288 289 292 302 303 QWQEDG","PhoP, residues 12 14 15 18 19 SMASL (Escherichia coli, UniProt P23836)","Sort-seq, item: YFP reporter",E. coli,"PhoQ-PhoP variant library, added: 10 µM Mg2+","reference: high Mg2+ state, higher = stronger signaling",fold induction,0.518

# Excerpt of the above (set 1):
Sequence,E-score
AATTGATG,-0.165
CTTAGAGA,-0.217
CTAACACA,-0.0479
